Measured values of several laboratories.
Lines come from different studies, so protocols differ. Several values in a cell are separate wells, animals, samples, runs or records. ± gives the spread as reported.
folP: Dihydropteroate synthase (folP, Bacteria, UniProt P0AC13)
UniProt P0AC13, sequence (whole entry, looked up): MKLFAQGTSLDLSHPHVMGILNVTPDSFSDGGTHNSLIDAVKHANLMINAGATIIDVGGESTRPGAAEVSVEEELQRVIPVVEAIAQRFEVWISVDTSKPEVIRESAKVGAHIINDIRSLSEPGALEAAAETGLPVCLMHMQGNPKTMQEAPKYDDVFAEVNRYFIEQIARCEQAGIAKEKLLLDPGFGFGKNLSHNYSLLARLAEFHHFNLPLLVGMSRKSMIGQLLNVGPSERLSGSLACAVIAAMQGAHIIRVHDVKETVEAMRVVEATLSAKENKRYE
T1: r(G4C2) repeat RNA, hairpin, 1x1 GG internal loops; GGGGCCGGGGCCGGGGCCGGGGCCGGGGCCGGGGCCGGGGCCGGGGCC
T2: RNA aptamer; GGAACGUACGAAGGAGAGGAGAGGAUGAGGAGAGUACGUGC
T3: RNA aptamer; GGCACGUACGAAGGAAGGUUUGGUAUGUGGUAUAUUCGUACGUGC
UniProt P22314, sequence (whole entry, looked up): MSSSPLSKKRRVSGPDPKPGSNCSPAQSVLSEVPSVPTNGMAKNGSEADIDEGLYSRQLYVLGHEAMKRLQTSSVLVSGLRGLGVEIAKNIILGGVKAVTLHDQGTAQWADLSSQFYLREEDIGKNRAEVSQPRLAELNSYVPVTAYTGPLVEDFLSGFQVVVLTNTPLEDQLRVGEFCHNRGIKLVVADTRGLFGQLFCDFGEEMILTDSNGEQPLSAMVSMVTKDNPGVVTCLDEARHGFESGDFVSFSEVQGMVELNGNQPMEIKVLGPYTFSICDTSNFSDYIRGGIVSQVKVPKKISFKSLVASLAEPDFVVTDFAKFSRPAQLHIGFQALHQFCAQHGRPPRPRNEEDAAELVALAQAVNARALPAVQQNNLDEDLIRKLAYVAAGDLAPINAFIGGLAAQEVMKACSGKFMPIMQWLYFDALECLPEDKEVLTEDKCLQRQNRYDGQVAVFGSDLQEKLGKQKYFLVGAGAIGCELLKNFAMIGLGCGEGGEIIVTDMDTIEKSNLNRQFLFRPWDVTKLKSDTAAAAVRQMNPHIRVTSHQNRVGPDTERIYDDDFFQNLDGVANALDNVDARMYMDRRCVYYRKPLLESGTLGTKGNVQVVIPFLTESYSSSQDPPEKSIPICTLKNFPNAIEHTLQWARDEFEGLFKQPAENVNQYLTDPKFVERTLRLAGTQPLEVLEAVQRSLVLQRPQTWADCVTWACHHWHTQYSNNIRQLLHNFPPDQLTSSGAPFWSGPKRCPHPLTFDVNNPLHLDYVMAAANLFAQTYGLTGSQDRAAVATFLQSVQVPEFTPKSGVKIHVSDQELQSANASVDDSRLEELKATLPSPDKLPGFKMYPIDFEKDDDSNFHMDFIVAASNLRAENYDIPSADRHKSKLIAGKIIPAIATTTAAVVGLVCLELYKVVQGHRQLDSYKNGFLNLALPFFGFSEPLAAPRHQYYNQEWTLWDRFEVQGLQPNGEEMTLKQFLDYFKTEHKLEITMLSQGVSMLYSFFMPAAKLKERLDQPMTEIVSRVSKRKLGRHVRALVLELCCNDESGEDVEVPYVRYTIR
UniProt P35030, sequence (whole entry, unmodified, looked up): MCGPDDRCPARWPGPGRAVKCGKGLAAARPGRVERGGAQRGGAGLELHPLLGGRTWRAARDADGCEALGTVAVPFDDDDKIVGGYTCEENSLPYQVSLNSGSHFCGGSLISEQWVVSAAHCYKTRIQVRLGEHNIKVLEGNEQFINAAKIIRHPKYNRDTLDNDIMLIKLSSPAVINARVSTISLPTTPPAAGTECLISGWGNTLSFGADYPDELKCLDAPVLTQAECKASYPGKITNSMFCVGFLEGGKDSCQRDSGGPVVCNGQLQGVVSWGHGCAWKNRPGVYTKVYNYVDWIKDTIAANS
UniProt Q13148, sequence (whole entry, looked up): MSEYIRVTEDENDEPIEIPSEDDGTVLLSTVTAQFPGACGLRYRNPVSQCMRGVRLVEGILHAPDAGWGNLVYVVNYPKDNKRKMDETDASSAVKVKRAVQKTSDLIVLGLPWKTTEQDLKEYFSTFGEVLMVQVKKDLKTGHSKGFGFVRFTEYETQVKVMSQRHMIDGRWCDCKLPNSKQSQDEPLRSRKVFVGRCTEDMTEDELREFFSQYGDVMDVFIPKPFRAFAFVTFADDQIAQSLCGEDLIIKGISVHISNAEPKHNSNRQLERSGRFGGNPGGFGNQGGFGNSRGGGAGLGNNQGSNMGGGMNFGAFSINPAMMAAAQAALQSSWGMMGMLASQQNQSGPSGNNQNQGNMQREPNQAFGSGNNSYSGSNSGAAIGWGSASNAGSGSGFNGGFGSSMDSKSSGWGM
UniProt P35821, sequence (whole entry, looked up): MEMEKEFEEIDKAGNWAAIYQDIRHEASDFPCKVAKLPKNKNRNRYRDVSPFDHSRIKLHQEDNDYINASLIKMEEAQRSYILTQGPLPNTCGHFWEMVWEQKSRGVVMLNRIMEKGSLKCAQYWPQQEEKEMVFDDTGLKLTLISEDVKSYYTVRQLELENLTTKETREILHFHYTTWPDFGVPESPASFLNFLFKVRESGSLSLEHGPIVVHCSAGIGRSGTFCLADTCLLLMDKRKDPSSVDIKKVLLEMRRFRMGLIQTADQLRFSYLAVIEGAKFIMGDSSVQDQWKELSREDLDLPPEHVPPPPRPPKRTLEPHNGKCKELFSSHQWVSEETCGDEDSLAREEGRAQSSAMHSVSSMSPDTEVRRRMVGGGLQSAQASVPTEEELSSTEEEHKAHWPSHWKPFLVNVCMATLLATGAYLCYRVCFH
UniProt Q5H9R7, sequence (whole entry, looked up): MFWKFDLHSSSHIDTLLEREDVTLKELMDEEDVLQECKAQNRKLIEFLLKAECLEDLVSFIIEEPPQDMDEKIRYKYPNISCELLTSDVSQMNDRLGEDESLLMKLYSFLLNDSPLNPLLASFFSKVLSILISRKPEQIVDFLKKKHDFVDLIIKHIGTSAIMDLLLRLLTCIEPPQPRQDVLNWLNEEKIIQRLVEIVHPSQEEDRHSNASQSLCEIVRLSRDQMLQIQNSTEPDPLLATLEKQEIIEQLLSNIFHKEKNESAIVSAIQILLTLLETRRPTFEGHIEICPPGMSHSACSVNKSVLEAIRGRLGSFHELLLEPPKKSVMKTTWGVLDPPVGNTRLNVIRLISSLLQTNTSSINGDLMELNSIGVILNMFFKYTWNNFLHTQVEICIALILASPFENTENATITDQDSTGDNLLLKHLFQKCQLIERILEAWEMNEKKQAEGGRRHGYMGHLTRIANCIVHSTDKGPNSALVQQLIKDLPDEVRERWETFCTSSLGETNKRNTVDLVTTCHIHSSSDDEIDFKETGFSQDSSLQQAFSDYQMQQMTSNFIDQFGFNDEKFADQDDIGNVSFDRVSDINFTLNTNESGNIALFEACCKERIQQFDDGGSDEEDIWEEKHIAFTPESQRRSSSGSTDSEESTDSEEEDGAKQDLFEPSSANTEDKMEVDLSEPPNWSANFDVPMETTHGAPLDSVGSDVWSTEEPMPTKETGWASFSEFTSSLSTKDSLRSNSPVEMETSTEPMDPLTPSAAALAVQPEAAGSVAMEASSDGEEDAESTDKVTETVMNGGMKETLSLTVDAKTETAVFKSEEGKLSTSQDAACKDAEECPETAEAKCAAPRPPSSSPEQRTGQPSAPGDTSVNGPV
UniProt P30048, sequence (whole entry, unmodified, looked up): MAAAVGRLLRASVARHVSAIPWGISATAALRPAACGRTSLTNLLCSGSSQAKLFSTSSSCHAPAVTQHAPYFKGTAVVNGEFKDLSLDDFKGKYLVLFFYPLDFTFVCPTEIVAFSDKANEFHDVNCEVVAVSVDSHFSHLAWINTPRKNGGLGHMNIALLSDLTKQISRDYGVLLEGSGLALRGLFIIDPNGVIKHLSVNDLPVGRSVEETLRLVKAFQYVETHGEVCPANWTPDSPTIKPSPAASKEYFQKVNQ
UniProt Q99571, sequence (whole entry, looked up): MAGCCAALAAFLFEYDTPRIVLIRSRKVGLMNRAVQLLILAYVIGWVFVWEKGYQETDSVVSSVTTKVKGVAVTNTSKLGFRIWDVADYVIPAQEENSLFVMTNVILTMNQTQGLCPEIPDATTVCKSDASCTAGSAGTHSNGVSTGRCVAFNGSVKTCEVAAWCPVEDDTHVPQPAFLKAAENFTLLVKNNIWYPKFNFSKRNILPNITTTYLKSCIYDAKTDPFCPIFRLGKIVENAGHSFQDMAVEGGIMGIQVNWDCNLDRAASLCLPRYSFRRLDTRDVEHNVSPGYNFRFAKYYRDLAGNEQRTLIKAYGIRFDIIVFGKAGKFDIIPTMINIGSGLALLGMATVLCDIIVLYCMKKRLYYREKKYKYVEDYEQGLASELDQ
UniProt Q16539, sequence (whole entry, looked up): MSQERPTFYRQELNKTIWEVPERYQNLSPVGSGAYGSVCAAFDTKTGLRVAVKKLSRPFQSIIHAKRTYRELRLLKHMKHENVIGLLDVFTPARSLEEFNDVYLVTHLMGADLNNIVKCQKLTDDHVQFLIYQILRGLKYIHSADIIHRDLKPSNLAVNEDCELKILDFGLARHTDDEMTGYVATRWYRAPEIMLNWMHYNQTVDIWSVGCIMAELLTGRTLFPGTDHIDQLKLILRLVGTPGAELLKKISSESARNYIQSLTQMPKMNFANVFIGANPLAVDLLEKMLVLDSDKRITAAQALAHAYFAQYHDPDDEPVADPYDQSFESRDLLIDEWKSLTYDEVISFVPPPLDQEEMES
UniProt Q14145, sequence (whole entry, unmodified, looked up): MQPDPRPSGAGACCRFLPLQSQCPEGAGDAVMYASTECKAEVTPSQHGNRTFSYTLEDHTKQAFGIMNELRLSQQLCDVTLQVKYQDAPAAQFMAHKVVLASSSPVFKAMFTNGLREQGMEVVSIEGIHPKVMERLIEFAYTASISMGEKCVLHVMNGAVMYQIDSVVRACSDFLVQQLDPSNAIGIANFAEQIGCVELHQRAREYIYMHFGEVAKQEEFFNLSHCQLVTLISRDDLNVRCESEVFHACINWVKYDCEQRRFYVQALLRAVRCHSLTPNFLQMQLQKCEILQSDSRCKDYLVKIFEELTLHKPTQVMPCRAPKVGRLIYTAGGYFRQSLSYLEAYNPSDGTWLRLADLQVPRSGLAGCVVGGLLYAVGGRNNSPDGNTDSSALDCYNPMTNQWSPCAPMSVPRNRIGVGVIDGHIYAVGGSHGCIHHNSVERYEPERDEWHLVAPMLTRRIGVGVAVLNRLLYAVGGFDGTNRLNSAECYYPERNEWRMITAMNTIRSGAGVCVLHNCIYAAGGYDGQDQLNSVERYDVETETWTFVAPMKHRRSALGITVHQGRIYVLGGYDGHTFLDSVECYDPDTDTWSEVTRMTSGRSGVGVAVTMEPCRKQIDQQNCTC

SMILES | target or system | test | system | conditions | how to read | quantity | result
Nc1nc2[nH]nc(CCC(=O)O)c(=O)c2c(=O)[nH]1 | folP | CETSA HiBiT | Escherichia coli, whole cells | concentration not given | baseline: DMSO | melting temperature shift | 2.01 °C
CN(CCCN1CCN(C(=O)CN2CCN(CC(=O)[O-])CCN(CC(=O)[O-])CCN(CC(=O)[O-])CC2)CC1)c1ccc2nccc(C(=O)NCC(=O)N3CC(F)(F)C[C@H]3C#N)c2c1.[Lu+3] | Albumin (ALB, Homo sapiens, UniProt P02768) | fluorescence quenching | – | – | – | binding constant Ka | 32200 M⁻¹
N#CN1CC[C@H](C(=O)Nc2nc3c(s2)CN(C(=O)Cn2cc(COCCOCCOCCOCCNC(=O)CCCC[C@@H]4SC[C@@H]5NC(=O)N[C@@H]54)nn2)CC3)C1 | Ubiquitin-like modifier-activating enzyme 1 (UBA1, Homo sapiens, UniProt P22314) | probe binding, affinity probe, neutravidin pull-down LC-MS/MS | HEK293T, cell lysate | 5 µM, 1 h, single replicate, unit not given | higher = more pulled down | iBAQ abundance | 588000 and 743000 and 663000
CC(C(=O)O)c1nn(C)c2nc(N)[nH]c(=O)c2c1=O (stereo not drawn) | folP | CETSA HiBiT | whole cells | – | – | melting temperature | 75.6 °C
O=c1c2ccccc2n(CC2CC2)c(=O)n1O | Flap endonuclease 1 (Homo sapiens, UniProt P39748) | ITC | – | concentration not given, pH 7.5, 25 °C, with: 8 mM Mg2+ | – | binding stoichiometry | 1.05
Cc1cc(C)cc(COc2cc3c(cc2OCc2cc(C)cc(C)c2)C2CC(O)(Cc4cn(CCOCCOCCNC(=O)CCCCC5SCC6NC(=O)NC65)nn4)CC(C)N2CC3)c1 (stereo not drawn) | Serine/threonine-protein phosphatase 6 regulatory subunit 3 (Homo sapiens, UniProt Q5H9R7) | biotinylated probe pull-down, refers to: PPP6R3 | – | 10 µM probe | baseline: heavy over light | SILAC ratio | 3.25
CCC1(CC)C(=O)N(c2ccc(CC(=O)O)cc2)C1=O.O=C(O)C(F)(F)F | Dipeptidyl peptidase 9 (DPP9, Homo sapiens, UniProt Q86TI2) | enzyme activity, inhibitor | – | 5 µM | – | activity vs control | 22%
CC(C)=CC1OC(C)(C)C2C=C3C(=O)C(Cl)=CC(O)C3C3C(O)C4OC4C(=O)C132 (stereo not drawn) | Receptor-type tyrosine-protein kinase FLT3 (FLT3, Homo sapiens, UniProt P36888, D835V/ITD) | cell-free assay, competition with immobilised ligand | – | 10 µM | – | remaining binding | 6.5%
CCCCCCCCCCCCC/C=C/C=O | MMS19 nucleotide excision repair protein homolog (MMS19, Homo sapiens, UniProt Q96T76) | competitive isoTOP-ABPP | proteome, soluble, MDA-MB-231 | 100 µM, 60 min, with: iodoacetamide probe | baseline: DMSO over compound-treated, higher = stronger cysteine blockade | isoTOP-ABPP competition ratio | 1.1
Cn1nnnc1SCc1nn(C)c2nc(N)[nH]c(=O)c2c1=O | folP | CETSA HiBiT | Escherichia coli, whole cells | concentration not given | baseline: DMSO | melting temperature shift | 9.89 °C
C#CCOc1ccc(C(=O)C(O)O)cc1 | T1, r(G4C2) repeat RNA, hairpin, 1x1 GG internal loops | click labelling with TAMRA-azide, gel fluorescence | – | covalent, dose- and time-dependent | – | binding | binds
C=CC(C)(C)c1cc(/C=C/C(=O)c2ccc(O)cc2)c(OC)cc1O | Prothrombin (F2, Homo sapiens, UniProt P00734) | chemoproteomic mass spectrometry, refers to: Lys-185 | – | – | baseline: without compound | lysine labelling ratio | 96%
Cc1n[nH]c2nc(N)[nH]c(=O)c2c1=O | folP | CETSA HiBiT | Escherichia coli, whole cells | concentration not given | baseline: whole cell over lysate ΔTm | target engagement efficiency | 8.76%
O=C1c2sc(-c3ccc(N4CCC(F)C4)nc3F)nc2CCN1c1cccnc1 (stereo not drawn) | TAR DNA-binding protein 43, aggregated (TARDBP, Homo sapiens, UniProt Q13148) | radioligand binding | human, FTLD-TDP type B extract | with: radioligand 1.29 nM | – | specific binding | 0.384 nM and 0.653 nM
N#Cc1c(N)nc2c(c1-c1ccc(CO)o1)Cc1cc(O)ccc1-2 | Thymocyte selection-associated high mobility group box protein TOX (Homo sapiens, UniProt O94900) | anti-TOX IP-MS, refers to: Macro-H2A | MOLT-4 | 10 µM | baseline: DMSO | fold change | -4.79
COc1cc(C2C(NC(=O)c3ccc(NC(=O)OC(C)(C)C)cc3)(C(=O)O)C(c3ccc(OC(=O)c4cccs4)c(OC)c3)C2(NC(=O)c2ccc(NC(=O)OC(C)(C)C)cc2)C(=O)O)ccc1OC(=O)c1cccs1 (stereo not drawn) | Glucagon-like peptide 1 receptor (GLP1R, Homo sapiens, UniProt P43220, K202A) | cAMP accumulation, agonist | – | receptor mutant | baseline: wild type | Emax | 83.6 ± 4.25%
COc1ccc(-c2ccc3c(c2)C(=Cc2sc4ccccc4[n+]2C)C=CN3C)cc1 | T2, RNA aptamer | fluorescence titration | – | – | – | Kd | 0.05 nM
C[Si](C)(C)C[C@H](CN)CC(=O)O | Somatostatin receptor type 3 (SSTR3, Homo sapiens, UniProt P32745) | ligand displacement, radioligand | – | 250 µM | – | inhibition | 0%

SMILES | target or system | test | system | conditions | how to read | quantity | result
Cn1c(=O)n(C2CCC(=O)NC2=O)c2ccc(C3CCN(CC(=O)Nc4cccc(CS(=O)(=O)N5CC[C@H](Nc6cccc(-c7sc(C(=O)O)c(OCC(=O)O)c7Cl)c6)CC5(C)C)c4)CC3)cc21 (stereo partly drawn) | Tyrosine-protein phosphatase non-receptor type 1 (Mus musculus, UniProt P35821) | degrader, Western blot | C57BL/6 mouse, splenocytes | intravenous, 100 mg/kg every 4 days, three doses, 2 h after final dose | – | remaining protein | 13%
Cc1cc(C(=O)Nc2nc3cccc(C)c3n2[C@H]2CCCCN(C(=O)/C=C/CN(C)C)C2)ccn1 | CDC2-like kinase 1 (Trypanosoma brucei brucei, UniProt Q382U0) | ADP-Glo | – | 10 µM | – | kinase activity | -7.97% and -7.91%
COC(=O)[C@@]1(C)C=C(C(=O)Nc2cccc(C(=O)Nc3ccc(Nc4nccc(-c5cccnc5)n4)c(C)c3)c2)C(=O)CC1 | Mitogen-activated protein kinase 14 (MAPK14, Homo sapiens, UniProt Q16539) | kinase activity, inhibitor | – | 133.3 µM, unit not given | baseline: no inhibitor | remaining activity | 0.218
COc1ccccc1-c1ccncc1C(=O)Nc1nnc(OCc2ccc(Cl)cc2)s1 | RECQL5 (Homo sapiens, UniProt O94762) | ATPase activity, ADP-Glo | – | 0.06 µM, 1 h | – | remaining activity | 110%
Cc1nc(-c2c[nH]c(C(=O)Nc3ncccc3O)c2)cs1 | Trypsin-3 (Homo sapiens, UniProt P35030, W279Q) | enzyme activity, mixed inhibitor, steady-state kinetics | – | – | higher = weaker ES binding | alpha factor | 5 and 7
COC1CN([C@H]2CC[C@H]([C@@]3(C)Oc4c(Cl)cc(C(=O)NCc5c(SC)cc(C)[nH]c5=O)c(C)c4O3)CC2)C1 | – | RNA-seq, refers to: PRSS23 | human, whole blood | dose not given, 24 h | baseline: pretreatment baseline | log2 fold change | 1.01
C#CCCCCNC(=O)c1ccc(N(C(=O)C=C)c2ccc(Br)cc2)cc1 | V-type proton ATPase catalytic subunit A (ATP6V1A, Homo sapiens, UniProt P38606) | mass spectrometry profiling | H460 cell lysate | 100 µM over 10 µM, UniProt P38606 | baseline: high over low concentration | reactivity ratio | 2.87
CC(=O)N[C@@H](CO)C(=O)N[C@@H](C)C(=O)N[C@@H](CCCCN)C(=O)N[C@@H](C)C(=O)N[C@@H](C)C(=O)N[C@@H](CC(=O)O)C(=O)N[C@@H](CC(=O)O)C(=O)N1CCC[C@H]1C(=O)N[C@@H](CCC(=O)O)C(=O)N[C@@H](CC(N)=O)C(=O)NCC(=O)N[C@@H](CCC(=O)O)C(=O)N[C@@H](CCCNC(=N)N)C(=O)N[C@@H](CCC(=O)O)C(=O)N[C@@H](CO)C(=O)N[C@@H](Cc1c[nH]cn1)C(=O)N[C@H](C(=O)N1CCC[C@H]1C(=O)N[C@H](C(=O)N[C@@H](CO)C(N)=O)C(C)C)[C@@H](C)O | Kelch-like ECH-associated protein 1, Kelch domain (KEAP1, Homo sapiens, UniProt Q14145) | binding, ITC | – | pH 7, 298.15 K | – | ΔG | -8.2 ± 0.07 kcal/mol
CC(C)[C@@H]1NC(=O)[C@H](Cc2ccccc2)NC(=O)CSC[C@@H](C(N)=O)NC(=O)[C@H](CCC(=O)O)NC(=O)[C@H](CO)NC(=O)[C@H](Cc2c[nH]c3cccc(Cl)c23)NC(=O)[C@H](C2CCCCC2)NC(=O)[C@H](C(C)C)NC(=O)[C@H](Cc2ccc(O)cc2)NC(=O)[C@H](CC(=O)O)NC(=O)[C@H](Cc2c[nH]c3ccccc23)NC(=O)[C@H](Cc2ccc(N)nc2)NC(=O)[C@H](Cc2c[nH]c3ccc(Cl)cc23)NC(=O)[C@H](CCC(=O)O)NC1=O | Interleukin-1 receptor-like 2 (IL1RL2, Homo sapiens, UniProt Q9HB29) | reporter gene (SEAP), inhibitor, HEK-Blue IL-36R reporter | HEK-Blue IL-36R cells | 3.7 µM, 6 h, with: IL-36β 0.3 ng/mL | – | remaining activity | 25.1%
CC(CC(=O)O)c1n[nH]c2nc(N)[nH]c(=O)c2c1=O (stereo not drawn) | folP | CETSA HiBiT | Escherichia coli, whole cells | concentration not given | baseline: DMSO | melting temperature shift | 0.813 °C
CCCCCC[C@H](NC(=O)[C@H](CCC(=O)O)NC(=O)[C@H](CCCNC(=N)N)NC(=O)[C@H](C)NC(=O)[C@H](Cc1c[nH]c2ccccc12)NC(=O)[C@H](CCC(=O)O)NC(=O)[C@H](CCC(=O)O)NC(=O)[C@H](CCC(=O)O)NC(C)=O)C(=O)NCC(=O)N[C@@H](C)C(=O)N[C@@H](CCC(N)=O)C(=O)N[C@@H](CC(C)C)C(=O)N[C@@H](CCCNC(=N)N)C(=O)N[C@@H](CCCNC(=N)N)C(=O)N[C@@H](C)C(=O)N[C@@H](C)C(=O)N[C@@H](CC(=O)O)C(=O)N[C@@H](CC(=O)O)C(=O)N[C@@H](CC(C)C)C(=O)N[C@@H](CC(N)=O)C(=O)N[C@@H](C)C(=O)N[C@@H](CCC(N)=O)C(=O)N[C@@H](Cc1ccc(O)cc1)C(=O)N[C@@H](CCC(=O)O)C(=O)N[C@@H](CCCNC(=N)N)C(=O)N[C@@H](CCCNC(=N)N)C(=O)N[C@@H](CCCNC(=N)N)C(N)=O | Induced myeloid leukemia cell differentiation protein Mcl-1 homolog, residues 152-308 (Mus musculus, UniProt P97287) | binding, SPR | – | 0.2% DMSO | – | koff | 0.0087 s⁻¹
C=C(NC(=O)c1csc(-c2cccnc2)n1)C(=O)NC(=C)C(=O)OC | Thioredoxin-dependent peroxide reductase, mitochondrial (PRDX3, Homo sapiens, UniProt P30048, A142E/C229S/S139E) | MALDI-TOF, refers to: CP adduct | PRDX3 C229S | 200 µM, 37 °C | – | adduct formation rate | 0.091 ± 0.005 min⁻¹
C[C@@H](Nc1nc(N[C@H](C)C(F)(F)F)nc(-c2cccc(Cl)n2)n1)C(F)(F)F | Isocitrate dehydrogenase [NADP], mitochondrial (IDH2, Homo sapiens, UniProt P48735, R172K) | – | – | 16 h preincubation | – | maximum inhibition | 61.6 ± 3.7%
CC(=O)C12NC(C)(C)CC1(C)C(=O)C1=C2c2c(c3c4n2C(C)(C)CC2=C4C4(CC(C)(C)NC(C)(C4)C2=O)CC3(C)C)C(=O)C(C)(C)N1 (single isomer, unassigned; (+)) | P2X purinoceptor 4 (P2RX4, Homo sapiens, UniProt Q99571) | ion current, agonist, whole-cell patch clamp | HEK293T | 10 µM | – | activation | 3.83 ± 0.03%
CCCCCC=CC=C1C(=O)C=CC1CC=CCCCC(=O)O (stereo not drawn) | Alpha-adducin (ADD1, Homo sapiens, UniProt P35611) | competitive isoTOP-ABPP, refers to: ADD1 cysteine peptide | proteome, soluble, MDA-MB-231 | 100 µM, with: iodoacetamide probe | baseline: DMSO over compound-treated, higher = stronger cysteine blockade | isoTOP-ABPP competition ratio | 2.2
Cc1ccc2c(c1)N(C)C=CC2=Cc1sc2ccccc2[n+]1CC(=O)NCCOCCOCCOCCNC(=O)CCCC[C@@H]1SC[C@@H]2NC(=O)N[C@@H]21 | T3, RNA aptamer | fluorescence titration | – | – | – | Kd | 11.3 nM
COC(=O)CC(C)c1n[nH]c2nc(N)[nH]c(=O)c2c1=O (stereo not drawn) | folP | CETSA HiBiT | Escherichia coli, whole cells | – | – | melting temperature | 55.6 °C
C/C=C/C(=O)Nc1ccc2nc(NCCCCCN(C)C)nc(NCCCCCCN(C)C)c2c1 | Histone-lysine N-methyltransferase SETDB1 (SETDB1, Homo sapiens, UniProt Q15047) | enzyme activity, inhibitor, radiometric | – | 10 µM | – | inhibition | -4%
